# Published values pooled from the literature.
# Lines come from different studies, so protocols differ. ± gives the spread as reported.
# Organism: Escherichia coli
SMILES,assay,test system,setting,scale,quantity,result
NC(=O)[C@@H]1Cc2c([nH]c3ccccc23)[C@@H](c2ccc(Cl)cc2Cl)N1,,BL21(DE3),"250 µM, 18 h",,growth inhibition,0%
CC(=NNC(=N)N)c1nnn(-c2ccc(C#CC3(O)CCCCC3)cc2)c1C,crystal violet,ATCC 25922,MIC,,biofilm inhibition,65.43 ± 0.45%
c1ccc(CN2CCOCCOCCN(CCCCCCCCN3CCOCCOCCN(CCCCCCCCN4CCOCCOCCN(Cc5ccccc5)CCOCCOCC4)CCOCCOCC3)CCOCCOCC2)cc1,checkerboard,tetracycline-resistant,together with: tetracycline,,concentration restoring tetracycline activity,8 µM
COc1ccc2c(c1CC=C(C)C)O[C@H]1c3cc4c(cc3OC[C@@]21O)OC(C)(C)C=C4,,TISTR 780,concentration not given,,antibacterial activity,inactive
CC[C@H](C)[C@H](NC(=O)[C@H](CCCNC(=N)N)NC(=O)[C@@H](N)CCCNC(=N)N)C(=O)N[C@@H](CCCNC(=N)N)C(=O)N1CCC[C@H]1C(=O)N[C@@H](CCCNC(=N)N)C(=O)N1CCC[C@H]1C(=O)N1CCC[C@H]1C(=O)N[C@@H](CCCNC(=N)N)C(=O)N[C@@H](CC(C)C)C(=O)N1CCC[C@H]1C(=O)N[C@@H](CCCNC(=N)N)C(=O)N1CCC[C@H]1C(=O)N[C@@H](CCCNC(=N)N)C(=O)N1CCC[C@H]1C(=O)N[C@@H](CCCNC(=N)N)C(=O)N1CCC[C@H]1C(=O)N[C@@H](CC(C)C)C(=O)N1CCC[C@H]1C(=O)N[C@@H](Cc1ccccc1)C(=O)N1CCC[C@H]1C(=O)N[C@@H](CCCNC(=N)N)C(=O)N1CCC[C@H]1C(=O)NCC(=O)N1CCC[C@H]1C(=O)N[C@@H](CCCNC(=N)N)C(=O)N1CCC[C@H]1C(=O)N[C@H](C(=O)N1CCC[C@H]1C(=O)N[C@@H](CCCNC(=N)N)C(=O)N1CCC[C@H]1C(=O)N[C@@H](CC(C)C)C(=O)N1CCC[C@H]1C(=O)N[C@@H](Cc1ccccc1)C(=O)N1CCC[C@H]1C(=O)O)[C@@H](C)CC,"membrane permeabilization, propidium iodide flow cytometry","BW25113, Mueller-Hinton broth","1 µM, 15 min, 37 °C",,PI-positive cells,< 3%
CNC1=C([N+](=O)[O-])C2(C(=O)Nc3ccc(Cl)cc32)C2=C(O1)C(=O)c1ccccc1C2=O (stereo not shown),microbial growth,ATCC25922,"250 µg/mL, 24 h",,inhibition,84.3%
N=C(N)NCCC[C@@H]1NC(=O)[C@H](CCCNC(=N)N)NC(=O)[C@H](CCCNC(=N)N)NC(=O)[C@H](Cc2ccc3ccccc3c2)NC(=O)[C@H](Cc2c[nH]c3ccccc23)NC(=O)[C@H](Cc2ccc3ccccc3c2)NC(=O)[C@H](CCCNC(=N)N)NC1=O,XTT,ATCC BAA-2452,2 × MIC,,biofilm mass reduction,60 to 65%
CCCCCCCCCC1CC2CCC3CC(CCCCCCCCC)NC(=N1)N23 (stereo not shown),bacterial growth,ATCC 35218,,,IC50,7.02 µM
c1ccc(CSc2nnc(C34CC5CC(CC(C5)C3)C4)n2-c2ccccc2)cc1,,IFO 3301,"200 µg/disc, 24 h, 37 °C",,inhibition zone diameter,< 10 mm
c1ccc(CN2CCOCCOCCN(CCCCCCCCCCN3CCOCCOCCN(CCCCCCCCCCN4CCOCCOCCN(Cc5ccccc5)CCOCCOCC4)CCOCCOCC3)CCOCCOCC2)cc1,"tetracycline MIC, checkerboard",tetracycline-resistant (pBR322),"1/2 MIC, together with: tetracycline",baseline: MIC alone over combination,fold enhancement,23 fold
C[C@]1(COC(=O)c2ccc(O)c(O)c2)[C@H](C(=O)O)N2C(=O)/C(=C/c3ccccn3)[C@H]2S1(=O)=O,broth microdilution,TG1 expressing FOX-4,16 µg/mL,,MIC of ceftazidime,≤ 0.06 mg/L
O=S(=O)(c1ccccc1)N(CCc1nnc(S)o1)c1ccc(Cl)cc1,cup plate method,,100 µg/mL,baseline: cotrimoxazole,relative inhibition,20.7%
COc1ccc(/N=N/C(=S)N2CCCCC2)cc1,microbial growth,"ATCC 8739, ATCC8739",24 h,,IC50,> 50 µM

# For quick reference, copied from above:
SMILES,assay,test system,setting,scale,quantity,result
CC(=NNC(=N)N)c1nnn(-c2ccc(C#CC3(O)CCCCC3)cc2)c1C,crystal violet,ATCC 25922,MIC,,biofilm inhibition,65.43 ± 0.45%
